Results gathered from unrelated publications.
Compare with care: the assays were run in different laboratories. Values joined by “and” are separate records of one study, mostly repeats; a detail may differ. ± marks the error that the study gave.

SMILES	assay	test system	conditions	scale	quantity	value
Cc1nc(-c2ccc(OCC(C)C)c(C#N)c2)sc1C(=O)O	–	KM mouse, chronic hyperuricaemia model	dose not given, day 14	–	body weight	35.4 g and 29.5 g and 34.9 g and 31.3 g and 32.1 g and 38.4 g
COC(=O)N[C@@H](C)CNc1nccc(-c2cn(C(C)C)nc2-c2cc(Cl)cc(NS(C)(=O)=O)c2F)n1	–	human, plasma	oral, 50 mg, single dose, geometric mean, together with: posaconazole	relative to: compound alone	AUCinf increase	~183% and ~180% and 183%
CN1CCC(c2ccc(-c3ccc(C4CCCCC4)cc3)cn2)CC1	liver microsome stability	cynomolgus liver microsomes	1 µM	–	hepatic clearance	32 mL/min/kg
C=CC[C@@H]1/C=C(\C)C[C@H](C)C[C@H](OC)[C@H]2O[C@@](O)(C(=O)C(=O)N3CCCC[C@H]3C(=O)O[C@H](/C(C)=C/[C@@H]3CC[C@@H](O)[C@H](OC)C3)[C@H](C)[C@@H](O)CC1=O)[C@H](C)C[C@@H]2OC	–	Wistar Kyoto rat, male, 24-hour urine	ip, 0.5 mg/kg/day, day 18	–	urine volume	10 ± 3.4 mL/day
O=C(Nc1nc2cccc(-c3ccc(CN4CCS(=O)(=O)CC4)cc3)n2n1)C1CC1	refers to: metabolism and nutrition disorders	human rheumatoid arthritis patients	oral, 150 mg once daily, 4 weeks, regardless of relatedness	–	treatment-emergent adverse events	0%
CC(C(=O)NCC(=O)NCC(CNC(=O)CNC(=O)C(C)N1CCN(CC(=O)[O-])CCN(CC(=O)[O-])CCN(CC(=O)[O-])CC1)(CNC(=O)CNC(=O)C(C)N1CCN(CC(=O)[O-])CCN(CC(=O)[O-])CCN(CC(=O)[O-])CC1)CNC(=O)CNC(=O)C(C)N1CCN(CC(=O)[O-])CCN(CC(=O)[O-])CCN(CC(=O)[O-])CC1)N1CCN(CC(=O)[O-])CCN(CC(=O)[O-])CCN(CC(=O)[O-])CC1.[Gd+3].[Gd+3].[Gd+3].[Gd+3] (stereo not shown)	ICP-MS	rat, femur bone marrow	intravenous, 0.6 mmol Gd/kg, 1 week	–	Gd concentration	3 nmol/g
O=C(O)CCC(=O)O.[2H]C([2H])([2H])Oc1cc(C)c2[nH]ccc2c1CN1CC[C@@H](C2CC2)C[C@H]1c1ccc(C(=O)O)cc1	–	healthy Chinese subjects	200 mg, single ascending dose	–	TEAE elevated blood triglycerides	16.7%
CN[C@@H](C)C(=O)N[C@H]1CN(S(=O)(=O)c2cccc(S(=O)(=O)N3CC[C@H]4CC[C@@H](C(=O)NC(c5ccccc5)c5ccccc5)N4C(=O)[C@@H](NC(=O)[C@H](C)NC)C3)c2)CC[C@H]2CC[C@@H](C(=O)NC(c3ccccc3)c3ccccc3)N2C1=O	LC-MS/MS	human, advanced solid tumours, plasma	intravenous, 20 mg weekly, day 1	–	AUC(0-t)	458 ± 199 ng·h/mL
Cc1cn(C(=O)c2c(-c3c(Cl)cc(Cl)cc3Cl)noc2C(C)(C)F)c2cccc(/C=C/C(=O)O)c12	–	human patients	700 mg bid, cycle 8 day 1	–	AUC(0-8h)	239000 ng·h/mL
Cc1cc(-c2nccc3c2ccn3CC(=O)Nc2ccc(-c3cnccn3)cn2)ccn1	–	human	SAD part, single 20 mg dose	–	subjects with Nausea TEAEs	0%
c1ccc(-c2nc(N3CCC(c4ccccn4)C3)c3ccccc3n2)nc1 (stereo not shown)	–	female Balb/c mice, plasma	intravenous, 2 mg/kg, mean, together with: ABT 2 h prior	–	MRT(0-last)	2.7 h
COc1ccnc(C(=O)NCC(=O)O)c1O	soil adsorption	soil	pH 6.9, organic carbon 0.8 %	–	KFoc	885 mL/g
CNC(=O)c1ccc(-c2cnc3ncc(Cc4ccc5ncccc5c4)n3n2)cc1F	refers to: Pruritus, all grades	gastric cancer patients	oral, 600 mg twice daily, expansion cohort, any causality	–	patients with adverse event	11%
O=C(Nc1cnccc1Cl)N1CCN(Cc2ccc3c(c2)OC(F)(F)O3)CC1	multiple ascending dose	elderly men and women	100 mg, treatment-emergent adverse events	–	hepatic enzyme increased	33.3%
Cc1ccc(CCC(=O)Nc2nnc(S(N)(=O)=O)s2)cc1	–	BALB/c mouse, male, plasma	oral, 20 mg/kg, 4 h	–	unbound plasma concentration	0.043 ng/mL
C[C@@H](N)C1CCN(S(=O)(=O)c2cccc3cnccc23)CC1	–	healthy volunteers	75 mg, fasted	–	participants, with TEAEs, treatment-related	16.7%
CCO[C@H]1CCN(Cc2c(OC)cc(C)c3[nH]ccc23)[C@H](c2ccc(C(=O)O)cc2)C1	–	PNH patients, active haemolysis	oral, 200 mg, 8 weeks, treatment	–	incidence of dyspepsia	0%
Cc1nc2cccc(OCC(C)(C)C(=O)NC(C)C)c2c(N)c1C(=O)O	–	male Swiss albino CD-1 mouse, bone marrow	oral, 1000 mg/kg, 24 h	–	micronucleated polychromatic erythrocytes	0.05%
CC(C)C[C@@H]1NC(=O)CNC(=O)[C@H](CC(N)=O)NC(=O)[C@H](CCCNC(=N)N)NC(=O)[C@H]([C@@H](C)O)NC(=O)[C@@H]2CSSC[C@@H]3NC(=O)[C@H]([C@@H](C)O)NC(=O)CNC(=O)CNC(=O)[C@H](C(C)C)NC(=O)[C@@H]4CSSC[C@H](NC(=O)[C@H]([C@@H](C)O)NC(=O)[C@H](CSSC[C@H](NC(=O)[C@H](C(C)C)NC(=O)[C@@H]5CCCN5C1=O)C(=O)NCC(=O)N[C@@H](CCC(=O)O)C(=O)N[C@@H]([C@@H](C)O)C(=O)N4)NC(=O)CNC(=O)[C@@H]1CCCN1C(=O)[C@H]([C@@H](C)O)NC(=O)[C@H](CC(N)=O)NC3=O)C(=O)N[C@@H](CO)C(=O)N[C@@H](Cc1c[nH]c3ccccc13)C(=O)N1CCC[C@H]1C(=O)N[C@@H](C(C)C)C(=O)N2	HPLC	ammonium bicarbonate	180 µM, 14 days, pH 9.0, 25 °C, deamidation stability	–	remaining peptide	89.9 ± 0.5%
O=c1ccc2ccc(O)cc2o1	–	dog liver microsomes	–	–	intrinsic clearance	691 µL/min/mg protein
Cn1cc(Nc2nccc(-c3ccc4c(c3)CN(C3COC3)CC[C@H]4NC(=O)c3cn(C(C)(C)C)nn3)n2)cn1	refers to: NKT cell count	human, clinical trial, whole blood	50 mg twice daily, follow-up	–	percent change from baseline	-18.7%
Cc1c(-c2ccc(N3CCc4cccc(C(=O)Nc5nc6ccccc6s5)c4C3)nc2C(=O)O)cnn1CC12CC3(C)CC(C)(C1)CC(OCCNCC[C@H](O)CO)(C3)C2	–	anaesthetized male beagle dog	iv infusion, 0.01 mg/kg/min, 5 min	–	plasma concentration	29 ng/mL
CCn1c(C(=O)N(C2CC2)C2CC2)cc2c3c(ncn3C)c(Nc3cc(C)n(C)n3)nc21	–	cancer patients	oral, 200 mg twice daily, day 15, 339.0 h	–	plasma concentration	6640 ng/mL

SMILES	assay	test system	conditions	scale	quantity	value
O=C(Cc1cccnc1)Nc1ccc(C2CCCCC2)cc1	–	mouse liver microsomes	1 µM	–	hepatic clearance	82 mL/min/kg
Cn1nc2c(=O)n(C3CC3)cnc2c1[C@](O)(c1cnc(C(F)(F)F)c(Cl)c1)C(F)(F)F	–	humanized SCID mice, blood	10 mg/kg once daily, 6 days, infected	–	AUC(0-96 h)	303 µM·h
CN1C(=O)[C@@H](NC(=O)c2nnc(Cc3ccccc3)[nH]2)COc2cccnc21	–	healthy human, fasted, plasma	oral, 100 mg single dose, median	–	Tmax	3.5 h
Cc1ccc([C@@H]2O[C@H](CO)[C@@H](O)[C@H](O)[C@H]2O)cc1Cc1ccc(-c2ccc(F)cc2)s1	–	Japanese type 2 diabetes patients	25 mg, day 15, 24 h urine collection	relative to: baseline	urinary potassium excretion change	0.091 mEq
CC(C)C(=O)O[C@H]1[C@H](C)OC(=O)[C@@H]1Cc1ccccc1	–	clay soil	pH 7.3, organic carbon 5.6 %	–	KFoc	58 mL/g
CCN1CCN(Cc2ccc(NC(=O)c3ccc(C)c(NC(=O)c4cncc(-c5cccs5)c4)c3)cc2C(F)(F)F)CC1	LC-MS/MS	C57BL/6 mouse, plasma	intraperitoneal, 15 mg/kg single dose, 8 h	–	mean plasma concentration	45 ng/mL
O=C(c1ccc([C@H]2[C@@H](F)[C@@H](F)C[C@@H](F)[C@H]2F)cc1)N1CC(O)C1	hepatocyte stability	cryopreserved rat hepatocytes	1 µM	–	hepatic clearance	10 mL/min/kg
CSCC[C@H](NC(=O)[C@@H](N)CCSC)C(=O)N[C@@H](CCCNC(=N)N)C(=O)N[C@@H](Cc1c[nH]c2ccccc12)C(=O)N[C@@H](CO)C(=O)N[C@@H](CCCNC(=N)N)C(=O)N[C@@H](CCCCN)C(=O)N[C@@H](CCSC)C(=O)N1CCC[C@H]1C(=O)N[C@@H](CS)C(=O)N[C@H](C(=O)N[C@@H](CO)C(N)=O)C(C)C	12G5 competition, SUP-T1 cells	human plasma	20 µM, 2 h, 37 °C	–	remaining activity	3 ± 1%
c1ncc(-c2ccc(C3CCCCC3)cc2)cn1	liver microsome stability	mouse liver microsomes	1 µM	–	hepatic clearance	78 mL/min/kg
CC(C)(C(=O)N1CCOc2c(C#N)cncc2C1)C(F)F	refers to: contact dermatitis	human	oral, 20 mg twice daily, 14 days, multiple ascending dose	–	subjects with adverse event	25%
NC(=O)N1c2ccccc2CC(O)c2ccccc21 (stereo not shown)	population PK modelling	human patients, plasma	dose not given, weight-scaled, proportional error	–	volume of distribution	48.6 L
Nc1cccc2ccc(/C=C/C(=O)c3ccc(O)cc3)cc12	–	toluene	20 °C	–	excitation maximum	411 nm
CCc1cc2ncc(CN3CCN(c4ccc(C(=O)NC)nc4)CC3)cc2[nH]c1=O	–	male rat, blood	oral, 50 mg/kg/day, 4 weeks	relative to: vehicle control	Lymphocytes count ratio	0.64
CCCc1nn(C)c2c(=O)[nH]c(-c3cc(S(=O)(=O)N4CCN(C)CC4)ccc3OCC)nc12	–	human, plasma	oral, 100 mg, geometric mean, together with: placebo	–	AUC(0-22)	1230 ng·h/mL
C#C[C@]1(CO)O[C@@H](n2cnc3c(N)nc(F)nc32)C[C@@H]1O	–	human, plasma	oral, 100 mg single dose, extrapolated beyond 96 h	–	AUC(0-168 h)	11 µM·h
O=C(Nc1ccc([C@H]2[C@@H](F)[C@@H](F)C[C@@H](F)[C@H]2F)cc1)c1cn[nH]c1	–	rat liver microsomes	1 µM	–	hepatic clearance	37 mL/min/kg
O=c1ccc2c(OCCCCOc3ccccc3)c3ccoc3cc2o1	HPLC-MS	Lewis rat, plasma	oral gavage, 50 mg/kg daily for 3 months, 24 h post-dose	–	trough plasma concentration	350 ± 78 nM
Cc1cc(Nc2ccc(S(F)(F)(F)(F)F)cc2)n2nc(C(C)(F)F)nc2n1	–	Plasmodium falciparum malaria patients	oral, 400 mg	–	adverse event Thrombocytopenia	0%
COc1ccc2c(=O)n(C)c(-c3ccccc3)nc2c1	–	male Sprague-Dawley rat, small intestine	oral, 30 mg/kg, 0.25 h	–	tissue concentration	215000 ng/g
CN(CCC#N)C(=O)c1ccc([C@H]2[C@@H](F)[C@@H](F)C[C@@H](F)[C@H]2F)cc1	liver microsome stability	cynomolgus liver microsomes	1 µM	–	hepatic clearance	4.9 mL/min/kg
N#Cc1ccc2c(c1)[C@H]1CCCN(C(=O)c3ccc4[nH]cnc4c3)[C@H]1C2	–	human	80 mg, day 15	–	median ACTH level	7 pmol/L
CCN1/C(=C/C(C)=O)Sc2ccc(F)cc21	–	cynomolgus monkey	oral, 100 mg/kg, 1 h post-dose	–	mean blood pressure	86 ± 4 mmHg
COc1cc(Nc2ncc3c(n2)-c2ccc(Cl)cc2C(c2c(F)cccc2OC)=NC3)ccc1C(=O)O	refers to: Hypokalemia, grade 3	cancer patients, phase 1/2	oral, dose not given, together with: pembrolizumab	–	patients with adverse event	8%

Repeated from above:
SMILES	assay	test system	conditions	scale	quantity	value
Cc1cn(C(=O)c2c(-c3c(Cl)cc(Cl)cc3Cl)noc2C(C)(C)F)c2cccc(/C=C/C(=O)O)c12	–	human patients	700 mg bid, cycle 8 day 1	–	AUC(0-8h)	239000 ng·h/mL
Cc1cc(-c2nccc3c2ccn3CC(=O)Nc2ccc(-c3cnccn3)cn2)ccn1	–	human	SAD part, single 20 mg dose	–	subjects with Nausea TEAEs	0%
c1ccc(-c2nc(N3CCC(c4ccccn4)C3)c3ccccc3n2)nc1 (stereo not shown)	–	female Balb/c mice, plasma	intravenous, 2 mg/kg, mean, together with: ABT 2 h prior	–	MRT(0-last)	2.7 h
COc1ccnc(C(=O)NCC(=O)O)c1O	soil adsorption	soil	pH 6.9, organic carbon 0.8 %	–	KFoc	885 mL/g
CNC(=O)c1ccc(-c2cnc3ncc(Cc4ccc5ncccc5c4)n3n2)cc1F	refers to: Pruritus, all grades	gastric cancer patients	oral, 600 mg twice daily, expansion cohort, any causality	–	patients with adverse event	11%
